Assay results of several laboratories.
Each numbered part is a random draw from the data of one study; scales do not carry over between parts.

Series 1 — method: universal PBM; molecule type: double-stranded DNA, one strand shown; medium: in vitro; concentration: not given; direction: higher = stronger binding
Target: Sal-like protein 4, full length isoform B (SALL4, Homo sapiens, UniProt Q9UJQ4-2, residues 1-616)
Notes: 8-mer, flanks averaged, mean of replicates
Sequence	E-score
AGCAGTCC	-0.281
CTCGAGAG	-0.162
CACTAGCG	-0.0777
TTCACGAA	-0.0035
CTTCCACC	-0.0183
AGTGCACT	0.0991
ACGGAGCT	-0.182
CCTACATC	0.00457

Series 2 — action: inhibitor; concentration: 20 µM
Target: Replicase polyprotein 1ab, nsp13 helicase (rep, Severe acute respiratory syndrome coronavirus 2, UniProt P0DTD1)
Compound	inhibition [%]
CCOc1ccc(/C=C2\NCCc3cc(OCC)c(OCC)cc32)cc1OCC	-4.25
c1ccc2sc(SN3CCOCC3)nc2c1	4.3
C[C@@H]1O[C@@H](O[C@@H]2[C@@H](O)[C@H](OCCc3ccc(O)c(O)c3)O[C@H](CO)[C@H]2OC(=O)/C=C/c2ccc(O)c(O)c2)[C@H](O)[C@H](O)[C@H]1O	-4.57
CC1CCN(CCCC(=O)c2ccc(F)cc2)CC1	5.37
CCCS(=O)(=O)Nc1ccc(F)c(C(=O)c2c[nH]c3ncc(-c4ccc(Cl)cc4)cc23)c1F	3.79
C[C@@H]1C[C@H]2[C@@H]3C[C@H](F)C4=CC(=O)C=C[C@]4(C)[C@@]3(F)[C@@H](O)C[C@]2(C)[C@@]1(O)C(=O)CO	8.06
COc1cc(N2CCC(N3CCN(C)CC3)CC2)ccc1Nc1ncnc(Nc2ccccc2S(=O)(=O)C(C)C)n1	8.2
CCN(CC)C(=S)S	72.1
O=S(=O)(O)Oc1ccc(C(c2ccc(OS(=O)(=O)O)cc2)c2ccccn2)cc1	3.01
Cc1ccc(N(CC2=NCCN2)c2cccc(O)c2)cc1	-0.02
CCOC(=O)c1c(CSc2ccccc2)n(C)c2cc(Br)c(O)c(CN(C)C)c12	1.42
C=CC[C@]1(O)CC[C@H]2[C@@H]3CCC4=CC(=O)CCC4=C3C=C[C@@]21C	2.23
CCN(CC)CCOCCOC(=O)C1(c2ccccc2)CCCC1	-4.14
CC(=O)Oc1ccccc1C(=O)Oc1cccc(CO[N+](=O)[O-])c1	2.7
NCCC[C@H](N)CC(=O)N[C@H]1CNC(=O)[C@H]([C@H]2C[C@H](O)NC(N)=N2)NC(=O)/C(=C/NC(N)=O)NC(=O)[C@H](CO)NC(=O)[C@H](CO)NC1=O	0.9
CN1C/C=C/CCOc2cccc(c2)-c2ccnc(n2)Nc2cccc(c2)C1	9.5
C/C=C(/C)C(=O)O[C@H]1C(C)=C[C@]23C(=O)[C@@H](C=C(CO)[C@@H](O)[C@]12O)[C@H]1[C@@H](C[C@H]3C)C1(C)C	0.95
O=C(O)[C@H](Cc1ccccc1)NCc1ccc(Cl)cc1	8.43
Nc1ccc(O)c(C(=O)O)c1	-3.14
Nc1nc2[nH]cc(CCc3ccc(C(=O)N[C@@H](CCC(=O)O)C(=O)O)cc3)c2c(=O)[nH]1	1.93
CCCCCNC(=N)N/N=C/c1c[nH]c2ccc(OC)cc12	6.08
COC(=O)CCc1ccc(OCC(O)CNC(C)C)cc1 (stereo not drawn)	-1.13
Nc1nc(N)nc(-c2cc(Cl)ccc2Cl)n1	4.98
NS(=O)(=O)c1ccc2c(c1)C1C=CCC1C(c1ccc(Br)cc1)N2 (stereo not drawn)	15.9
Cc1ccc(NC(=O)c2ccc(CN3CC[C@H](N(C)C)C3)c(C(F)(F)F)c2)cc1Nc1nccc(-c2cncnc2)n1	6.95

Series 3 — method: competition protein-binding microarray; molecule type: double-stranded DNA, one strand shown; medium: in vitro; concentration: 2 µM; with: Pho4 competitor, 0.05 µM; direction: higher = stronger binding; shared flanks, not repeated: … GTCTTGATTCGCTTGACGCTGCTG
Target: Centromere-binding protein 1, full length, His-tagged (CBF1, Saccharomyces cerevisiae, UniProt P17106, residues 1-351)
Chain of UniProt P17106 (whole entry, looked up): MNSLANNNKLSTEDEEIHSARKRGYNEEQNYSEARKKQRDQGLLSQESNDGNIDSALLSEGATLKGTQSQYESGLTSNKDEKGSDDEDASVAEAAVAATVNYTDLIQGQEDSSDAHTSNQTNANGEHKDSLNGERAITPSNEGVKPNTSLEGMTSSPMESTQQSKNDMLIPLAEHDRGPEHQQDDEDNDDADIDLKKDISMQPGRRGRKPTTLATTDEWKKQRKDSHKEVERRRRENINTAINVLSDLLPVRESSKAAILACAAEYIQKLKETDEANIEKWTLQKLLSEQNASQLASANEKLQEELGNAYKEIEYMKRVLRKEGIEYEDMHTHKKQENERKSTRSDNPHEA
Notes: whole 60-bp probe, lowest competitor level
Sequence	fluorescence intensity [a.u.]
CTAACGAAGGTTTCGCACGTGTTTTACAAGCCAAGT	1470
TGCGCAACAACTTGTTCGGTGGGTGTATGTCTAGAA	65.4
TGCGCAACAACTTGGGGAGTGGGTGTATGTCTAGAA	61.9
CGCCCTATTCTGCACAGCGTGATGGGCTGTCTGACA	94
TTCTTGATTAGGACGCCCATGAAGTGGGCCAGCCAA	55.2
CGGCCTGCAATGTTCCACGTGGACCACTCATCAAAC	546
AGCCACATCAACTGTCACATGTATGGAAAACTCGCA	626
CTTTCCCGATCTTGGACAGTGGGTGTAGCACATTTG	66.9

Series 4 — cell line: HEK-293T; read-out: pseudovirus infection; method: FDA-approved drug library screen; organism: VSV pseudotyped with SARS-CoV-2 spike; concentration: 10 µM; time: 16 h; baseline: vehicle-treated
Structure (SMILES)	GFP-positive cells [%]
CN1CCC(=C2c3ccccc3CC(=O)c3sccc32)CC1	72.7
C[C@]12CCC(=O)C=C1[C@@H]1C[C@@H]1[C@H]1[C@@H]3[C@@H]4C[C@@H]4[C@@]4(CCC(=O)O4)[C@@]3(C)CC[C@@H]12	192
CC(C)CC(N(C)C)C1(c2ccc(Cl)cc2)CCC1 (stereo not drawn)	102

Series 5 — target: Sox-I, HMG box (Salpingoeca helianthica); method: Spec-seq; molecule type: double-stranded DNA, one strand shown; medium: in vitro; concentration: not given; notes: whole probe, mean of replicates; baseline: not given; direction: lower = stronger binding
Residues (chain): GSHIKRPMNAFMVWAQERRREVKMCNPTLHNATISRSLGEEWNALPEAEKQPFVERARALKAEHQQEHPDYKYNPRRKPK
Sequence	relative binding energy [ln ratio]
GAGTCGTCTCGTCAGCACCATTCCGCCGTAGAGCACTCAGGTC	0.994
GAGTCGTCTCGTCAGCACCATTCTACCGTAGAGCACTCAGGTC	0.0334
GAGTCGTCTCGTCAGCACCAGGGTTCCGTAGAGCACTCAGGTC	1.05

Series 6 — organism: SARS-CoV-2; read-out: cytopathic effect; cell line: Vero E6; concentration: 10 µM
SMILES	inhibition [%]
CC(=O)[O][Pt]([NH2])([Cl])([Cl])([NH]C1CCCCC1)[O]C(C)=O	-17.4
O=C1OC2(c3ccccc31)c1cc(Br)c(O)c(Br)c1Oc1c2cc(Br)c(O)c1Br	-51.7
O=C(O)c1ccc(SSc2ccc(C(=O)O)cn2)nc1	4.3
O=C(O)c1cc(N2N=C(C(F)(F)F)/C(=C/c3ccc(-c4ccccc4)o3)C2=O)ccc1Cl	3.6

Excerpt of the above (series 1):
Sequence	E-score
CTCGAGAG	-0.162
CACTAGCG	-0.0777
TTCACGAA	-0.0035
CTTCCACC	-0.0183
AGTGCACT	0.0991
ACGGAGCT	-0.182
CCTACATC	0.00457
